Results of several laboratories.
Lines come from different studies, so protocols differ. ± marks the error that the study gave.

CCCC[C@H](NC(=O)CCCCCCCNC(=O)CN1CCN(CC(=O)O)CCN(CC(=O)O)CC1)C(=O)N[C@H]1CC(=O)NCCCC[C@@H](C(N)=O)NC(=O)[C@H](Cc2c[nH]c3ccccc23)NC(=O)[C@H](CCCNC(=N)N)NC(=O)[C@@H](Cc2ccccc2)NC(=O)[C@H](Cc2c[nH]cn2)NC1=O [copper-64 labelled] has a tissue uptake of 0.1 ± 0.05 %ID/g (C57 mice, stomach; intravenous, 0.37 MBq, 24 h).
Cc1cc(-c2ccc(NC(=O)[C@H](CCCCNC(=O)CCOCCOCCC(=O)N[C@H](Cc3ccccc3)C(=O)N[C@H]3CSSC[C@@H](C(=O)N[C@H](C(=O)O)[C@@H](C)O)NC(=O)[C@H]([C@@H](C)O)NC(=O)[C@H](CCCCN)NC(=O)[C@@H](Cc4c[nH]c5ccccc45)NC(=O)[C@H](Cc4ccc(O)cc4)NC3=O)NC(=O)CN3CCN(CC(=O)O)CCN(CC(=O)O)CCN(CC(=O)O)CC3)c(C)c2)ccc1N=Nc1ccc2c(S(=O)(=O)O)cc(S(=O)(=O)O)c(N)c2c1O [lutetium-177 labelled]: “residence time ratio” 2 fold (patients with metastatic NETs, liver metastases; reference: cpd over 177Lu-EB-TATE).
For C=C1CC[C@H](OCCCNC(=O)CCOCCOCCOCCOCCOCCOCCOCCOCCOCCOCCOCCOCCOCCOCCOCCOCCOCCOCCOCCOCCOCCOCCOCCOCCOCCOCCOCCOCCOCCOCCOCCOCCOCCOCCOCCOCCNC(=O)CCN2C(=O)CC(SC[C@H](NC(=O)[C@H](Cc3ccccc3)NC(=O)[C@H](CC(N)=O)NC(=O)[C@H](Cc3c[nH]cn3)NC(=O)[C@@H](NC(=O)[C@H](CC(=O)O)NC(=O)[C@H](CCC(N)=O)NC(=O)[C@H](CC(C)C)NC(=O)[C@H](CCCCN)NC(=O)[C@H](CCCCN)NC(=O)[C@H](CCCNC(=N)N)NC(=O)[C@H](CC(C)C)NC(=O)[C@H](Cc3c[nH]c4ccccc34)NC(=O)[C@H](CCC(=O)O)NC(=O)[C@@H](NC(=O)[C@H](CCCNC(=N)N)NC(=O)[C@H](CCC(=O)O)NC(=O)[C@H](CCSC)NC(=O)[C@H](CO)NC(=O)[C@H](CC(N)=O)NC(=O)[C@H](CC(C)C)NC(=O)[C@H](Cc3c[nH]cn3)NC(=O)[C@H](CCCCN)NC(=O)CNC(=O)[C@H](CC(C)C)NC(=O)[C@H](CC(N)=O)NC(=O)[C@H](Cc3c[nH]cn3)NC(=O)[C@H](CCSC)NC(=O)[C@H](CC(C)C)NC(=O)[C@H](CCC(N)=O)NC(=O)[C@@H](NC(=O)[C@H](CCC(=O)O)NC(=O)[C@H](CO)NC(=O)[C@@H](NC(=O)[C@@H](N)CO)C(C)C)[C@@H](C)CC)C(C)C)C(C)C)C(N)=O)C2=O)C/C1=C/C=C1\CCC[C@]2(C)[C@@H]([C@H](C)CCCC(C)(C)O)CC[C@@H]12 (some centres unmarked), the dose-normalized Cmax was 1 (cynomolgus monkey; subcutaneous, 0.7 µg/kg every other day, 89 days; reference: reference dose).
Under “acquisitions per year”, N=C(N)NCCC[C@H](NC(=O)[C@@H]1CSSC[C@H](NC(=O)[C@H](Cc2ccc3ccccc3c2)NC(=O)[C@H](CCCNC(=N)N)NC(=O)[C@H](CCCNC(=N)N)NC(=O)CN2CCN(CC(=O)O)CCN(CC(=O)O)CC2)C(=O)N[C@@H](Cc2ccc(O)cc2)C(=O)N[C@@H](CCCNC(N)=O)C(=O)N[C@@H](CCCCN)C(=O)N[C@H](CCCCN)C(=O)N2CCC[C@H]2C(=O)N[C@@H](Cc2ccc(O)cc2)C(=O)N[C@@H](CCCNC(=N)N)C(=O)N[C@@H](CCCNC(N)=O)C(=O)N1)C(N)=O [gallium-68 labelled] is recorded as ≤ 14 (human patients; 5 mCi per scan).
With N=C(N)NCCC[C@@H]1NC(=O)[C@H](CCCCNC(=O)CC[C@H](NC(=O)CC[C@H](NC(=O)CN2CCN(CC(=O)O)CCN(CC(=O)O)CCN(CC(=O)O)CC2)C(=O)N[C@@H](CCC(=O)NCCCC[C@@H]2NC(=O)[C@@H](Cc3ccccc3)NC(=O)[C@H](CC(=O)O)NC(=O)CNC(=O)[C@H](CCCNC(=N)N)NC2=O)C(=O)NCCCC[C@@H]2NC(=O)[C@@H](Cc3ccccc3)NC(=O)[C@H](CC(=O)O)NC(=O)CNC(=O)[C@H](CCCNC(=N)N)NC2=O)C(=O)NCCCC[C@@H]2NC(=O)[C@@H](Cc3ccccc3)NC(=O)[C@H](CC(=O)O)NC(=O)CNC(=O)[C@H](CCCNC(=N)N)NC2=O)NC(=O)[C@@H](Cc2ccccc2)NC(=O)[C@H](CC(=O)O)NC(=O)CNC1=O [indium-111 labelled] the tissue uptake was 2.06 ± 0.39 %ID/g (female athymic nu/nu mice, lungs; intravenous, 4 h).
The tissue uptake of CCCC[C@H](NC(=O)COCCOCCNC(=O)CN1CCN(CC(=O)O)CCN(CC(=O)O)CC1)C(=O)N[C@H]1CC(=O)NCCCC[C@@H](C(N)=O)NC(=O)[C@H](Cc2c[nH]c3ccccc23)NC(=O)[C@H](CCCNC(=N)N)NC(=O)[C@@H](Cc2ccccc2)NC(=O)[C@H](Cc2c[nH]cn2)NC1=O [copper-64 labelled] is reported as 2.29 ± 0.54 %ID/g (C57 mice, heart; intravenous, 0.37 MBq, 0.5 h).
N=C(N)NCCC[C@@H]1NC(=O)[C@H](CCCCNC(=O)CNC(=O)CNC(=O)CNC(=O)CC[C@H](NC(=O)CNC(=O)CNC(=O)CNC(=O)CN2CCN(CC(=O)O)CCN(CC(=O)O)CCN(CC(=O)O)CC2)C(=O)NCC(=O)NCC(=O)NCC(=O)NCCCC[C@@H]2NC(=O)[C@@H](Cc3ccccc3)NC(=O)[C@H](CC(=O)O)NC(=O)CNC(=O)[C@H](CCCNC(=N)N)NC2=O)NC(=O)[C@@H](Cc2ccccc2)NC(=O)[C@H](CC(=O)O)NC(=O)CNC1=O [indium-111 labelled] gave a tissue uptake of 10.7 ± 1.82 %ID/g (female athymic nu/nu mice, U87MG tumour; intravenous, 111 kBq, 1 h).
Cc1cc(-c2ccc(NC(=O)[C@H](CCCCNC(=O)CCN3C(=O)CC(SCCC(=O)N[C@H](Cc4ccccc4)C(=O)N[C@H]4CSSC[C@@H](C(=O)N[C@H](C(=O)O)[C@@H](C)O)NC(=O)[C@H]([C@@H](C)O)NC(=O)[C@H](CCCCN)NC(=O)[C@@H](Cc5c[nH]c6ccccc56)NC(=O)[C@H](Cc5ccc(O)cc5)NC4=O)C3=O)NC(=O)CN3CCN(CC(=O)O)CCN(CC(=O)O)CCN(CC(=O)O)CC3)c(C)c2)ccc1N=Nc1ccc2c(S(=O)(=O)O)cc(S(=O)(=O)O)c(N)c2c1O (some centres unmarked) [lutetium-177 labelled] gave a residence time of 0.26 ± 0.07 h (metastatic NET patients, lymph node metastases).

Repeated from above:
The tissue uptake of CCCC[C@H](NC(=O)COCCOCCNC(=O)CN1CCN(CC(=O)O)CCN(CC(=O)O)CC1)C(=O)N[C@H]1CC(=O)NCCCC[C@@H](C(N)=O)NC(=O)[C@H](Cc2c[nH]c3ccccc23)NC(=O)[C@H](CCCNC(=N)N)NC(=O)[C@@H](Cc2ccccc2)NC(=O)[C@H](Cc2c[nH]cn2)NC1=O [copper-64 labelled] is reported as 2.29 ± 0.54 %ID/g (C57 mice, heart; intravenous, 0.37 MBq, 0.5 h).
